Assay results of several laboratories.
Each line is one published result; not all experiments were run side by side.
TYK2 JH2: Non-receptor tyrosine-protein kinase TYK2, JH2 (TYK2, Homo sapiens, UniProt P29597)
TYK2 JH1: Non-receptor tyrosine-protein kinase TYK2, JH1 (TYK2, Homo sapiens, UniProt P29597)

CNC(=O)C1CCN(c2cc(C)c(F)cc2NC(=O)c2ccc(-c3cc(O)ccc3C)c(C)c2)CC1 — remaining binding (TYK2 JH2; binding, competition with immobilised ligand; 1 µM): 78%
COc1cc(Nc2nccc(-c3cnn4nc(OC)ccc34)n2)cc(C(F)(F)F)c1 — remaining binding (TYK2 JH1; binding, competition with immobilised ligand; 1 µM): 100%
Nc1ncc2c(n1)-c1c([nH]c3ccc(C4=CCOCC4)cc13)CCC2 — remaining binding (TYK2 JH2; binding, competition with immobilised ligand; 1 µM): 1.1%
CCN1CCN(Cc2ccc(NC(=O)c3ccc(C)c(NC(=O)c4cncc(-c5cnn(C)c5)c4)c3)cc2C(F)(F)F)CC1 — remaining binding (TYK2 JH1; binding, competition with immobilised ligand; 1 µM): 100%
CC(C)=CC1OC(C)(C)C2C=C3C(=O)C(Cl)=CC(O)C3C3C(O)C4OC4C(=O)C132 (stereo not drawn) — remaining binding (TYK2 JH2; cell-free assay, competition with immobilised ligand; 10 µM): 59%
COc1ccc(NC(=O)Nc2ccc3c(c2)C(=O)N(C(C)CO)CC(C)C(CN(C)Cc2ccc4c(c2)OCO4)O3)cc1 (stereo not drawn) — remaining binding (TYK2 JH1; binding, competition with immobilised ligand; 10 µM): 87%
C=CC(=O)N1CCCC(n2c(=O)c3ncccc3n(Cc3ccc(Oc4ccccc4)cc3)c2=O)C1 (stereo not drawn) — remaining binding (TYK2 JH2; cell-free assay, competition with immobilised ligand; 1 µM): 100%
CNC1C[S+]2CC[S+]3CC[S+](C1)[Ru-4]321([N]=C=S)[n]2c3ccc(OC)cc3c3c4c(c5cc(F)c[n+]1c5c32)C(=O)NC4=O (stereo not drawn) — remaining binding (Non-receptor tyrosine-protein kinase TYK2, JH2 pseudokinase domain (TYK2, Homo sapiens, UniProt P29597); KinomeScan; 0.1 µM; baseline: untreated): 87%
COc1cc(Nc2nc(C)cc(-c3cnn4nc(OC)ccc34)n2)cc(C(F)(F)F)c1 — remaining binding (TYK2 JH1; binding, competition with immobilised ligand; 1 µM): 61%
C=CC(=O)N1CCc2ccc(-n3c(=O)ccc4cnc5ccc(-c6cnn(C)c6)cc5c43)cc21 — remaining binding (Non-receptor tyrosine-protein kinase TYK2, JH1 domain (TYK2, Homo sapiens, UniProt P29597); KINOMEscan; 1 µM; baseline: DMSO control): 100%
CN1CCN(Cc2ccc(NC(=O)c3cccc(C#Cc4cnc(N)c5ncccc45)c3)cc2C(F)(F)F)CC1 — remaining binding (TYK2 JH1; cell-free assay, competition with immobilised ligand; 50 nM): 32%
CCN1CCN(Cc2ccc(C(=O)Nc3ccc(C)c(NCc4cnc5[nH]ccc5c4OC)c3)cc2C(F)(F)F)CC1 — remaining binding (TYK2 JH1; binding, competition with immobilised ligand; 1 µM): 60%
CNS(=O)(=O)Nc1nccc(Cc2c(C)c3ccc(Oc4ncccc4F)cc3oc2=O)c1F — remaining binding (TYK2 JH1; binding, competition with immobilised ligand; 10 µM): 98%
Cc1ccc(-c2c(/C=C(\C#N)C(=O)NC(C)C)n(CCCO)c3ncnc(N)c23)cc1 — remaining binding (TYK2 JH2; cell-free assay, competition with immobilised ligand; 1 µM): 100%
COc1c(Cl)cccc1Nc1c(-c2ccncc2C#C[C@@]2(C)CCCN2C(=O)/C=C/CN(C)C)[nH]c2c1C(=O)NCC2 — remaining binding (TYK2 JH1; cell-free assay, competition with immobilised ligand; 3 µM): 98%

Excerpt of the above:
CCN1CCN(Cc2ccc(NC(=O)c3ccc(C)c(NC(=O)c4cncc(-c5cnn(C)c5)c4)c3)cc2C(F)(F)F)CC1 — remaining binding (TYK2 JH1; binding, competition with immobilised ligand; 1 µM): 100%
CN1CCN(Cc2ccc(NC(=O)c3cccc(C#Cc4cnc(N)c5ncccc45)c3)cc2C(F)(F)F)CC1 — remaining binding (TYK2 JH1; cell-free assay, competition with immobilised ligand; 50 nM): 32%
